# Experimental data pooled from the literature.
# Numbered parts are unrelated; each lists some results of a single study. Numbers after ± are the reported error. Ends that are not written are not given here.

# Block 1
# Target: Replicase polyprotein 1ab, main protease (rep, Severe acute respiratory syndrome coronavirus 2, UniProt P0DTD1)
# Effect on: enzyme activity
# Mode: inhibitor
# Concentration: 20 µM
# Notes: hit confirmation, with DTT
SMILES,inhibition
CNC(=O)ON(C(C)=O)C(=O)NC,17.5%
C[C@@H]1O[C@@H](O[C@@H]2[C@@H](O)[C@H](OCCc3ccc(O)c(O)c3)O[C@H](CO)[C@H]2OC(=O)/C=C/c2ccc(O)c(O)c2)[C@H](O)[C@H](O)[C@H]1O,-16.8%
O=C1OC2(c3cc(I)c(O)c(I)c3Oc3c2cc(I)c(O)c3I)c2c(Cl)c(Cl)c(Cl)c(Cl)c21,92.1%

# Block 2
# Target: Replicase polyprotein 1ab, nsp12 with nsp7/nsp8 (rep, Severe acute respiratory syndrome coronavirus 2, UniProt P0DTD1)
# Effect on: enzyme activity
# Concentration: 20 µM
SMILES,inhibition [%]
CCCC[C@@H](C=O)NC(=O)[C@H](CC(C)C)NC(=O)OCc1ccccc1,-2.11
CCN(CC)C(C)C(=O)c1ccccc1 (stereo not drawn),-5.99
CC(C)COCC(CN(Cc1ccccc1)c1ccccc1)N1CCCC1 (stereo not drawn),-1.86
CCCCCCNC(=O)n1cc(F)c(=O)[nH]c1=O,-13.8
N#C/C(=C\c1ccc(O)c(O)c1)C(=O)OCCc1cccs1,104
Cc1nnc(C(=O)NC(C)(C)c2nc(C(=O)NCc3ccc(F)cc3)c(O)c(=O)n2C)o1,-3.11
COc1cc(CNC(=O)CCCC/C=C/C(C)C)ccc1O,16.3
Cc1cc(C(C#N)c2ccc(Cl)cc2)c(Cl)cc1NC(=O)c1cc(I)cc(I)c1O (stereo not drawn),56.1
O=C(NN1C(=O)[C@@H]2[C@@H]3C=C[C@@H]([C@H]4C[C@@H]34)[C@@H]2C1=O)c1ccc(C(F)(F)F)cc1,-5.19
CC(=O)[C@@]1(O)CC[C@H]2[C@@H]3C[C@H](C)C4=CC(=O)C=C[C@]4(C)[C@@]3(F)[C@@H](O)C[C@@]21C,22.7
Nc1ccncc1,34.3
CCOC(=O)C1=C[C@@H](OC(CC)CC)[C@H](NC(C)=O)[C@@H](N)C1,35
CC(C)[C@]12O[C@H]1[C@@H]1O[C@]13[C@]1(O[C@H]1C[C@H]1C4=C(CC[C@@]13C)C(=O)OC4)[C@@H]2O,0.34
COc1ccc2c(c1)c(CC(=O)O)c(C)n2C(=O)c1ccc(Cl)cc1,18.2
O=C(O)c1ccccc1Nc1ccc(CCc2ccc(Cl)c(Cl)c2)cc1,64.9
Cc1cn([C@H]2C[C@H](N=[N+]=[N-])[C@@H](CO)O2)c(=O)[nH]c1=O,-7.94
Nc1ncnc2c1ncn2[C@@H]1O[C@H](COP(=O)(O)OP(=O)(O)OP(=O)(O)O)[C@@H](O)[C@H]1O,-6.47
C[C@H]1C[C@H]2[C@@H]3CCC4=CC(=O)C=C[C@]4(C)[C@@]3(F)[C@@H](O)C[C@]2(C)[C@@]1(O)C(=O)CO,-1.78

# Mixed results
# rep main protease: Replicase polyprotein 1ab, main protease (rep, Severe acute respiratory syndrome coronavirus 2, UniProt P0DTD1)
Molecule,target or system,test,test system,setting,scale,endpoint,result
CC[C@H](C)[C@H](NC(=O)[C@H](CC(C)C)NC(=O)[C@H](Cc1c[nH]c2ccccc12)NC(=O)[C@H](CCC(N)=O)NC(=O)[C@@H](NC(=O)[C@H](Cc1ccccc1)NC(=O)[C@H](C)NC(=O)[C@H](CCCCNC(=O)COCCOCCNC(=O)COCCOCCNC(=O)CC[C@H](NC(=O)CCCCCCCCCCCCCCCCCCC(=O)O)C(=O)O)NC(=O)[C@H](CCC(N)=O)NC(=O)[C@H](C)NC(=O)[C@@H](NC(=O)[C@H](CCCCN)NC(=O)[C@H](CC(=O)O)NC(=O)[C@H](CC(C)C)NC(=O)C(C)(C)NC(=O)[C@@H](NC(=O)[C@H](CO)NC(=O)[C@H](Cc1ccc(O)cc1)NC(=O)[C@H](CC(=O)O)NC(=O)[C@H](CO)NC(=O)[C@@H](NC(=O)[C@H](Cc1ccccc1)NC(=O)[C@@H](NC(=O)CNC(=O)[C@H](CCC(=O)O)NC(=O)C(C)(C)NC(=O)[C@@H](N)Cc1ccc(O)cc1)[C@@H](C)O)[C@@H](C)O)[C@@H](C)CC)[C@@H](C)CC)C(C)C)C(=O)N[C@@H](C)C(=O)NCC(=O)NCC(=O)N1CCC[C@H]1C(=O)N[C@@H](CO)C(=O)N[C@@H](CO)C(=O)NCC(=O)N[C@@H](C)C(=O)N1CCC[C@H]1C(=O)N1CCC[C@H]1C(=O)N1CCC[C@H]1C(=O)N[C@@H](CO)C(N)=O,,,"human, plasma","5/5/10/10 mg escalation, day 22, tau 168 h, geometric mean",,AUC(0-tau),131 µg·h/mL
CC(C)(C)[C@@H]1NC(=O)O[C@@H]2CCC[C@H]2OC/C=C/C(F)(F)c2nc3ccccc3nc2O[C@@H]2C[C@@H](C(=O)N[C@]3(C(=O)NS(=O)(=O)C4(C)CC4)C[C@H]3C(F)F)N(C2)C1=O,rep main protease,"reporter gene (Gaussia luciferase), inhibitor",,20 µM,,inhibition,3.56%
CCCN(CCC)CCCNC(=O)C1CCCN(Cc2nc(-c3ccc(Cl)cc3)oc2C)C1 (stereo not drawn),SARS-CoV-2,"cytopathic effect, cell-based CPE",USA_WA1/2020,"round 2, 5-point dilution",,maximal response,85.1%
CCCCCCc1ccc(O)cc1O,rep main protease,"reporter gene (Gaussia luciferase), inhibitor",,20 µM,,inhibition,-1.08%
env gp120 (HIV-1),"CD4 26-396 (Homo sapiens, UniProt P01730)",SPR,,,,Kd,71.4 nM
AIKLDDKDPNFKDQV,human CD4 T cells,AIM,peptide,,,responding donors,8%
CCCN1CCN(CCCNC(=O)c2cc3c(Cl)nc4ccccc4c3s2)CC1,SARS-CoV-2,"cytopathic effect, cell-based CPE",USA_WA1/2020,"round 2, 5-point dilution",,maximal response,78.9%
COc1ccc([C@H](Cc2ccncc2)c2ccccc2)cc1OC1CCCC1,SARS-CoV-2,"viral replication, high-content imaging screen",BetaCov/Belgium/GHB-03021/2020,cell-based,,EC50,> 100000 nM
O=C(/C=C/c1ccc(O)c(O)c1/C=C/c1ccc(O)c(O)c1)O[C@H](Cc1ccc(O)c(O)c1)C(=O)O,Severe acute respiratory syndrome coronavirus 2,cytopathic effect,Vero C1008,12.5 µM,,inhibition,0%
CN(C)C/C=C/C(=O)Nc1cc2c(Nc3ccc(F)c(Cl)c3)ncnc2cc1O[C@H]1CCOC1.O=C(O)/C=C\C(=O)O.O=C(O)/C=C\C(=O)O,HEK-293T-ACE2,,,concentration not given,baseline: vehicle,cell number,91.6%
QPLRKLCILHRNPGRCYQKIPAFYYNQKKKQCEGFTWSGCGGNSNRFKTIEECRRTCIRK (dendrotoxin I; ends and bridges not checked; cysteine pairing not given here; sequence looked up),"maxi-KCa channel, rat muscle","channel block, planar bilayer single-channel",,"460 nM, internal site, with: BPTI",,DTX substates ended by full opening,96.1%
O=c1ccn([C@@H]2O[C@](F)(CO)[C@@H](O)[C@H]2O)c(=O)[nH]1,Junin virus,viral replication,"Vero C1008, Romero",,,EC50,110 ± 100 nM
VSSQCVNLTTRTQLP,human CD4 T cells,AIM,peptide,,,responding donors,8%
O=C1NC2CCCCN2C12CCN(CCCN1c3ccccc3CCc3ccc(Cl)cc31)CC2 (stereo not drawn),SARS-CoV-2,"viral replication, GFP plate reader screen",BetaCov/Belgium/GHB-03021/2020,cell-based,,EC50,7410 nM
insulin human,,item: RYR2 mRNA,"uninfected mouse, brain","i.p., dose not given",baseline: PBS,fold change,1.18
